Results of several laboratories.
Parts stem from different laboratories: compare values within a part only. ± gives the spread as reported.
Chain of UniProt Q08881 (whole entry, looked up): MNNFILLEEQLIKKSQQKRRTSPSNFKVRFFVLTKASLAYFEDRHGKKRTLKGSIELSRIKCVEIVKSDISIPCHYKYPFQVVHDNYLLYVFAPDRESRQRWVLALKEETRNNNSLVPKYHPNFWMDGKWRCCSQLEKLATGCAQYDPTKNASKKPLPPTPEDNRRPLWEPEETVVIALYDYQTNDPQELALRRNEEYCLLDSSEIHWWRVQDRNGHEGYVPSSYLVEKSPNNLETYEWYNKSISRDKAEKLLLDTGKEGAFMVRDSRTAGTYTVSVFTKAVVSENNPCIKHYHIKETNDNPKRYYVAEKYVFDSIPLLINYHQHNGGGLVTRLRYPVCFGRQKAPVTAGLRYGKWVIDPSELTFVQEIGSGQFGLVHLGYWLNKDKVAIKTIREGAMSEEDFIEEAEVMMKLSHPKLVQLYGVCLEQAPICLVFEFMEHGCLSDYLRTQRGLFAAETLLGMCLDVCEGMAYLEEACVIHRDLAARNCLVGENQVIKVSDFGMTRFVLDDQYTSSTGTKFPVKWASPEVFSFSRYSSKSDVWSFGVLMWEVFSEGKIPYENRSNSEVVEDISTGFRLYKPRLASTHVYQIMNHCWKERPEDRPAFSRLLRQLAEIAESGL
Chain of UniProt Q08345 (whole entry, looked up): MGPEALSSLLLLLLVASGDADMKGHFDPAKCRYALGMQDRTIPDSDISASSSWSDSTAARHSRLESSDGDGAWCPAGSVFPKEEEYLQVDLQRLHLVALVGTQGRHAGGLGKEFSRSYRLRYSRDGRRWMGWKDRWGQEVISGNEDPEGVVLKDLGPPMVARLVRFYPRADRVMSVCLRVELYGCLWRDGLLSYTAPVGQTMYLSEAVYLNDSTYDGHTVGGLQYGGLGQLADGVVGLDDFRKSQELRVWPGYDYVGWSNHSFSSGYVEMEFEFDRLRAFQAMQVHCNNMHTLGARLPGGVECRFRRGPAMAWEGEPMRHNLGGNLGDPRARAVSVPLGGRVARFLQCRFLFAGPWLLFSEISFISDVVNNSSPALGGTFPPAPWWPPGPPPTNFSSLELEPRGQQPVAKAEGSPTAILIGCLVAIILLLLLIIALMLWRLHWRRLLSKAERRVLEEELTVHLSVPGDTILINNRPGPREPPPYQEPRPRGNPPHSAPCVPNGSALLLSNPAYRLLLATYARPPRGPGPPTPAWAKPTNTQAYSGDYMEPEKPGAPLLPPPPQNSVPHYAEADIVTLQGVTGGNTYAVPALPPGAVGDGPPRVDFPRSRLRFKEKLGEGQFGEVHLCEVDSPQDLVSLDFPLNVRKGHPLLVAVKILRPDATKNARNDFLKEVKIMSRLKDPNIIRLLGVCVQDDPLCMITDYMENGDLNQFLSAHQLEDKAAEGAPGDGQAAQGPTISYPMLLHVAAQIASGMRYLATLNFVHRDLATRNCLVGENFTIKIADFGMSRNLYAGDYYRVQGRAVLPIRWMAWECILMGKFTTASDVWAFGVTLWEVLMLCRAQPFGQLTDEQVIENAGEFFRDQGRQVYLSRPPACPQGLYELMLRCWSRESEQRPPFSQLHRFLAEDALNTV
Chain of UniProt Q8N568 (whole entry, looked up): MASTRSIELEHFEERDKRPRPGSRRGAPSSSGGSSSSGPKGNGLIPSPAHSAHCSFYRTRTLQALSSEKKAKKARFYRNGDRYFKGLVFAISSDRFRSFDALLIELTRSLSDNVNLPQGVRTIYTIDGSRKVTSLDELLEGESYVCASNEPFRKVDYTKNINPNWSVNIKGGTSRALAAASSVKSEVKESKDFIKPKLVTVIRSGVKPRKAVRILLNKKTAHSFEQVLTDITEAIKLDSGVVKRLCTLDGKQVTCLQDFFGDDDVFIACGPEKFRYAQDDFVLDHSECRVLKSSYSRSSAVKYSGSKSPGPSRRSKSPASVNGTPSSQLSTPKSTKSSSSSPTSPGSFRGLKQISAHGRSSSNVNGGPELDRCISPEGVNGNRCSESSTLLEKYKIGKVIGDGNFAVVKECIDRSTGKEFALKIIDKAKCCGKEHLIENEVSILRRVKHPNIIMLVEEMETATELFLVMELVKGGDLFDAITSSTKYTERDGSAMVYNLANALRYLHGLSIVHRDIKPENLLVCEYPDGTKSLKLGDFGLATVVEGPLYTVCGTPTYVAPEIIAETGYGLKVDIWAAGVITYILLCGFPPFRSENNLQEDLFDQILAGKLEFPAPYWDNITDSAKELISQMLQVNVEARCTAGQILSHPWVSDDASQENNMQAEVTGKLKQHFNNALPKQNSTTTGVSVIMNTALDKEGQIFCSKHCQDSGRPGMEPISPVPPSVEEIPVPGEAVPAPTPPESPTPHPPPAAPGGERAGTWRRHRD
Chain of UniProt P42338 (whole entry, looked up): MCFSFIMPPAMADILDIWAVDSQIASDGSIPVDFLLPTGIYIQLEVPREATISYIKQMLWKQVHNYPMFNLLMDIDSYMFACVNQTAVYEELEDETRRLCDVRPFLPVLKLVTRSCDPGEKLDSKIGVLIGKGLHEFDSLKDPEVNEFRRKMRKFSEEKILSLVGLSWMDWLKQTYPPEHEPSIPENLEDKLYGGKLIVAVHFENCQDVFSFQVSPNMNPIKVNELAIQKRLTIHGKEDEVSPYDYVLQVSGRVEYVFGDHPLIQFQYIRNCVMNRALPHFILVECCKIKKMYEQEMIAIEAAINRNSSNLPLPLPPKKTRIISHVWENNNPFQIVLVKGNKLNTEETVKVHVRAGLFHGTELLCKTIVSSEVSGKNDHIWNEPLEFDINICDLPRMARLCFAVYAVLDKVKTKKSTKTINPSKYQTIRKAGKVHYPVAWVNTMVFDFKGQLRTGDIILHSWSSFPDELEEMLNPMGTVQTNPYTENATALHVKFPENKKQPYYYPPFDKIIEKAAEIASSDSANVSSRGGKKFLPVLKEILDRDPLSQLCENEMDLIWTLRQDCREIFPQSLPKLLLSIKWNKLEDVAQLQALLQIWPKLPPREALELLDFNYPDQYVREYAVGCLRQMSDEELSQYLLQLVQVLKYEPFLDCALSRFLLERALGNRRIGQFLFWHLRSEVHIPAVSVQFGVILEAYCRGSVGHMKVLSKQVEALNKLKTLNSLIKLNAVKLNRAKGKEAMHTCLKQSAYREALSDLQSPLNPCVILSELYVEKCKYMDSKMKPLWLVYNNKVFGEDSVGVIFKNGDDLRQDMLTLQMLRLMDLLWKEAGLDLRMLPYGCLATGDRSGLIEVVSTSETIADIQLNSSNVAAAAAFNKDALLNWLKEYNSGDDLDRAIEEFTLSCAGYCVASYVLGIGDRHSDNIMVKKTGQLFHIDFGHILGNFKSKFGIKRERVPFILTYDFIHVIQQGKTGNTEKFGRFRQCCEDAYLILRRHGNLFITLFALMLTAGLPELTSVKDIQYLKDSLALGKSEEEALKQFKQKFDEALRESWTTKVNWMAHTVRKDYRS

Block 1
Structure (SMILES): C[C@@H]1CN(c2ccc(-c3cc(C(=O)NCCOCCOCCOCCOCCNC(=O)/C=C/c4[nH]cc(C(=O)N[C@@H](CC(N)=O)c5ccc(F)c(Cl)c5)c4-c4ccc(Cl)cc4F)ccc3F)cc2NC(=O)c2c[nH]c(=O)cc2C(F)(F)F)C[C@H](C)N1C
Observed: thermal unfolding
Method: differential scanning fluorimetry
Tested at: 5.5 µM
Reading: higher = more unfolded
DCAF1: DDB1- and CUL4-associated factor 1 (DCAF1, Homo sapiens, UniProt Q9Y4B6)
Chain of UniProt Q9Y4B6 (whole entry, looked up): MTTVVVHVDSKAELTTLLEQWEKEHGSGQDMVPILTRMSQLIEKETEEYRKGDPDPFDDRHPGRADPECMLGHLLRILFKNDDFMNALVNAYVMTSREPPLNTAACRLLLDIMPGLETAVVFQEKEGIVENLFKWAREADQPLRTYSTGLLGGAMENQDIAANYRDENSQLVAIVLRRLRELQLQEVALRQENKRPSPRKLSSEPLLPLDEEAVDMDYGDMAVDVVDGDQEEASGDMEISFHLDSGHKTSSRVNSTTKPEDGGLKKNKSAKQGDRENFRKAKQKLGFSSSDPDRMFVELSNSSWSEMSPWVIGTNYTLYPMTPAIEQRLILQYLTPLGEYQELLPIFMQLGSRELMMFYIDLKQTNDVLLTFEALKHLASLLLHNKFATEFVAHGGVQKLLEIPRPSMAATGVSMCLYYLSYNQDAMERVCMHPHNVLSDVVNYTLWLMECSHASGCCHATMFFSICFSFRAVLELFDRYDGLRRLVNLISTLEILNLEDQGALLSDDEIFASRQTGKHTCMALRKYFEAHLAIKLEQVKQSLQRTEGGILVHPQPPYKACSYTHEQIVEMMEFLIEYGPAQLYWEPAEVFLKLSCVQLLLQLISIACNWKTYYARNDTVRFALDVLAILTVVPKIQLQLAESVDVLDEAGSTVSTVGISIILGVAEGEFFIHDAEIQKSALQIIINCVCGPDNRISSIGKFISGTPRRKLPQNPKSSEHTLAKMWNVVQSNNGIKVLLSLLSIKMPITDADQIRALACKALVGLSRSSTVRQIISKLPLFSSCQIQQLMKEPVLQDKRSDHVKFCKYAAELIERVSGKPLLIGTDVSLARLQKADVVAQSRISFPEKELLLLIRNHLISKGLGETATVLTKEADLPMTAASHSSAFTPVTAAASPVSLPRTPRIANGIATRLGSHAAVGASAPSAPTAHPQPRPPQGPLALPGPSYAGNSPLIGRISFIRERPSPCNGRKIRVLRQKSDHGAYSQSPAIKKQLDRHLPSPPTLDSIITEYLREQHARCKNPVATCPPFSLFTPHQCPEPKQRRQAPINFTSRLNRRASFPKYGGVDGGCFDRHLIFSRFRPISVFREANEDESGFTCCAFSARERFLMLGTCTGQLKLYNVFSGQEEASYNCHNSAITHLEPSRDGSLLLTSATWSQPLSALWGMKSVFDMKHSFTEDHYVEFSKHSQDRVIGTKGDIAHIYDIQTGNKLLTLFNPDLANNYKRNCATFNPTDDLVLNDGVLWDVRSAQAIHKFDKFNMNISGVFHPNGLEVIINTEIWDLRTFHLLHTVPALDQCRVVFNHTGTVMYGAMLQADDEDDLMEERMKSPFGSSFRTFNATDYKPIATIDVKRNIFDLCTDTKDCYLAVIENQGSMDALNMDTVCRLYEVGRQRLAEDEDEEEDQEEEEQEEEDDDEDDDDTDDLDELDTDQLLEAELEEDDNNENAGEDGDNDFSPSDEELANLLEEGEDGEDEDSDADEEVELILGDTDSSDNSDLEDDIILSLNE
WDR5: WD repeat-containing protein 5 (WDR5, Homo sapiens, UniProt P61964)
| target | conditions | SYPRO Orange fluorescence |
| --- | --- | --- |
| DCAF1 | 38 °C | 10900 a.u. |
| DCAF1 | 78.81 °C | 46500 a.u. |
| WDR5 | 60.41 °C | 15500 a.u. |
| WDR5 | 76.61 °C | 30000 a.u. |
| WDR5 | 49.2 °C | 16100 a.u. |
| DCAF1 | 63.41 °C | 55200 a.u. |
| WDR5 | 78.61 °C | 36200 a.u. |
| DCAF1 | 65.81 °C | 59400 a.u. |
| WDR5 | 87.41 °C | 53600 a.u. |
| WDR5 | 87.81 °C | 53400 a.u. |
| WDR5 | 34.6 °C | 13200 a.u. |

Block 2
Compound: O=C(Nc1ccccc1)Nc1cccc(Oc2ccc3nccn3n2)c1
Tested at: 1 µM
| target | assay | conditions | remaining binding [%] |
| --- | --- | --- | --- |
| Receptor-type tyrosine-protein kinase FLT3, autoinhibited (FLT3, Homo sapiens, UniProt P36888) | binding, competition with immobilised ligand | – | 100 |
| Serine/threonine-protein kinase 38-like (STK38L, Homo sapiens, UniProt Q9Y2H1) | binding | – | 100 |
| Ephrin type-B receptor 1 (EPHB1, Homo sapiens, UniProt P54762) | cell-free binding | – | 100 |
| Epithelial discoidin domain-containing receptor 1 (DDR1, Homo sapiens, UniProt Q08345) | binding, competition with immobilised ligand | – | 2.2 |
| Serine/threonine-protein kinase PAK 4 (PAK4, Homo sapiens, UniProt O96013) | binding | – | 100 |
| Peripheral plasma membrane protein CASK (CASK, Homo sapiens, UniProt O14936) | binding | – | 84 |
| Mitogen-activated protein kinase kinase kinase kinase 2 (MAP4K2, Homo sapiens, UniProt Q12851) | binding, competition with immobilised ligand | – | 100 |
| Fibroblast growth factor receptor 4 (FGFR4, Homo sapiens, UniProt P22455) | binding | – | 100 |
| Serine/threonine-protein kinase B-raf (BRAF, Homo sapiens, UniProt P15056) | binding, competition with immobilised ligand | – | 76 |
| Non-receptor tyrosine-protein kinase TYK2 (TYK2, Homo sapiens, UniProt P29597) | cell-free binding | JH1 catalytic domain | 86 |
| Fibroblast growth factor receptor 2 (FGFR2, Homo sapiens, UniProt P21802) | binding, competition with immobilised ligand | – | 91 |
| Phosphatidylinositol 4,5-bisphosphate 3-kinase catalytic subunit beta isoform (PIK3CB, Homo sapiens, UniProt P42338) | binding | – | 100 |
| Mitogen-activated protein kinase kinase kinase 1 (MAP3K1, Homo sapiens, UniProt Q13233) | binding | – | 100 |
| Leucine-rich repeat serine/threonine-protein kinase 2 (LRRK2, Homo sapiens, UniProt Q5S007) | binding | – | 100 |

Block 3
SMILES: CN(C1COC1)C(C)(C)/C=C(\C#N)C(=O)N1CCC[C@H]1Cn1nc(-c2ccc(Oc3ccccc3)cc2F)c2c(N)ncnc21
Observed: kinase activity
| target | conditions | inhibition |
| --- | --- | --- |
| Ribosomal protein S6 kinase alpha-6 (RPS6KA6, Homo sapiens, UniProt Q9UK32) | 1 µM | 2% |
| Aurora kinase C (AURKC, Homo sapiens, UniProt Q9UQB9) | 1 µM | -3% |
| Serine/threonine-protein kinase DCLK2 (DCLK2, Homo sapiens, UniProt Q8N568) | 1 µM | 1% |
| Calcium/calmodulin-dependent protein kinase type II subunit delta (CAMK2D, Homo sapiens, UniProt Q13557) | 0.1 µM | 4% |
| Tyrosine-protein kinase ABL2 (ABL2, Homo sapiens, UniProt P42684) | 1 µM | -1% |
| MAP kinase-activated protein kinase 5 (MAPKAPK5, Homo sapiens, UniProt Q8IW41) | 1 µM | 0% |
| SRSF protein kinase 2 (SRPK2, Homo sapiens, UniProt P78362) | 0.1 µM | -4% |
| Cyclin-dependent kinase 9, with cyclin T1 (CDK9, Homo sapiens, UniProt P50750) | 0.1 µM | 2% |
| NUAK family SNF1-like kinase 1 (NUAK1, Homo sapiens, UniProt O60285) | 0.1 µM | 3% |
| Angiopoietin-1 receptor (TEK, Homo sapiens, UniProt Q02763) | 1 µM | 12% |
| Tyrosine-protein kinase JAK2 (JAK2, Homo sapiens, UniProt O60674) | 1 µM | -5% |
| Protein kinase C alpha type (PRKCA, Homo sapiens, UniProt P17252) | 1 µM | -3% |
| Phosphatidylinositol 4,5-bisphosphate 3-kinase catalytic subunit alpha isoform (PIK3CA, Homo sapiens, UniProt P42336) | 0.1 µM | -5% |
| Mitogen-activated protein kinase 1 (MAPK1, Homo sapiens, UniProt P28482) | 1 µM | -2% |
| Tyrosine-protein kinase ITK/TSK (ITK, Homo sapiens, UniProt Q08881) | 0.1 µM | 0% |

Mixed results
| SMILES | test system | conditions | quantity | result |
| --- | --- | --- | --- | --- |
| COc1cc(-c2nc3ccc(C(=O)NCCCN(C)C)cc3n2C2CCC2)cc(OC)c1OC | mouse, male | oral gavage, 50 mg/kg | apparent clearance CL/F | 1.6 ± 0.36 mg/(h·µmol/L)/kg |

Excerpt of the above (block 2):
| target | assay | conditions | remaining binding [%] |
| --- | --- | --- | --- |
| Receptor-type tyrosine-protein kinase FLT3, autoinhibited (FLT3, Homo sapiens, UniProt P36888) | binding, competition with immobilised ligand | – | 100 |
| Serine/threonine-protein kinase 38-like (STK38L, Homo sapiens, UniProt Q9Y2H1) | binding | – | 100 |
